Measured values of several laboratories.
Every numbered part comes from another study and shows a few of its results, in no order. Positions count from the first letter of the parent shown.

Study 1 — method: Spec-seq; form: double-stranded DNA, one strand shown; medium: in vitro; tested at: not given; notes: whole probe, mean of replicates; baseline: not given; reading: lower = stronger binding; endpoint: relative binding energy; shared flanks, not repeated: GAGTCGTCTCGTCAGCAC … CCGTAGAGCACTCAGGTC
Target: POU domain, class 5, transcription factor 1, POU domain (Pou5f1, Mus musculus, UniProt P20263, residues 131-289)
Sequence of UniProt P20263 (131-289, looked up): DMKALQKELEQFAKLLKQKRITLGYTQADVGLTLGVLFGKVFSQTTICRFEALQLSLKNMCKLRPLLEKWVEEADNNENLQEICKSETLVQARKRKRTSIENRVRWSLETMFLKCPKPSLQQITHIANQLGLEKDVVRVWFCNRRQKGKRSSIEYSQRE
ATGCATTG: -0.407 ln ratio
ATGCGCAT: 0.0743 ln ratio
ATACCTAT: 0.36 ln ratio
ATCCATAT: -0.868 ln ratio
ATGCGCGC: 0.34 ln ratio
ATTGCCAT: 0.444 ln ratio
ATTTAAAT: -1.29 ln ratio
ATTTGAAT: -1.2 ln ratio
ATCCGGAT: 0.819 ln ratio
ATAATGAT: -0.191 ln ratio
CGTGTAAT: 0.867 ln ratio
ATGCTTCC: 0.666 ln ratio
GAGTTAAT: 0.528 ln ratio
GAGATAAT: 0.457 ln ratio
ATGTCCAT: 0.383 ln ratio
ATGCTAGA: 0.604 ln ratio
ATGCGTCT: 0.244 ln ratio
ATTTTAAT: -0.64 ln ratio
GCATTAAT: -0.713 ln ratio
ATTCCGAT: 0.334 ln ratio
ATCGATAT: 0.509 ln ratio

Study 2 — method: competition protein-binding microarray; form: double-stranded DNA, one strand shown; medium: in vitro; tested at: 2 µM; with: Pho4 competitor, 0.05 µM; reading: higher = stronger binding; endpoint: fluorescence intensity
Target: Centromere-binding protein 1, full length, His-tagged (CBF1, Saccharomyces cerevisiae, UniProt P17106, residues 1-351)
Sequence of UniProt P17106 (whole entry, looked up): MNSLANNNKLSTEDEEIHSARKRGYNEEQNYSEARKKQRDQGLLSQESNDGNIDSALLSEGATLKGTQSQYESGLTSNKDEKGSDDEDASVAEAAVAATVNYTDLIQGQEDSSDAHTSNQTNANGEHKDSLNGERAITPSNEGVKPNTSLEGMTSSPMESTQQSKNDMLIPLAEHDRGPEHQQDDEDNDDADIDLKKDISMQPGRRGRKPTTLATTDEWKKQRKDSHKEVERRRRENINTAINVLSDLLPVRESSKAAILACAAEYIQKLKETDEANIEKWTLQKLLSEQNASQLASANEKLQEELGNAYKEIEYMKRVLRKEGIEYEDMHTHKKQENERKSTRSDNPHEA
Notes: whole 60-bp probe, lowest competitor level
GCTGCTGGCTAAAATAGTGTGACGAAACGTACATAGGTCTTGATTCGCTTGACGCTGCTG: 85.3 a.u.
TCTCCTCACAATTTTCACGTGCTTTCGATCTTAGTTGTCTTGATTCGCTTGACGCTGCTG: 1410 a.u.
CTGTGTGACCTTGGACACATGGCTCAACCTCTGTGAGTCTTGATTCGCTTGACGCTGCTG: 125 a.u.
CTAACGAAGGTTTGGCTTGTGGGTGACAAGCCAAGTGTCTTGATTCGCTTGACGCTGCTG: 79 a.u.
CTTTCCCGATCTTGGTATGTGGGTGTAGCACATTTGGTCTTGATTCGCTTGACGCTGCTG: 76.4 a.u.
CTTAATTGCAAGATTCAGCTGACTGCATATGGGCAGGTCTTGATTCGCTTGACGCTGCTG: 151 a.u.
TTATTGGTGGACAGTCAGCTGACAGAAAACTTAGATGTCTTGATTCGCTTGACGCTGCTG: 890 a.u.
TGCGATTCAGGTCTCAACGTGCAAAGTGCAGGAGCAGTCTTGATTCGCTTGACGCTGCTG: 74.3 a.u.
CATACCCAACCTTGGTTCGTGGGTGAAGATATTTGTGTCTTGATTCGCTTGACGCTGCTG: 63 a.u.
CTTCTGTAAATTTGTGAGGTGGGTGGACGCGCCCCGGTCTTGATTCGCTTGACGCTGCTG: 113 a.u.
AGCGACTATATTTTGCACGCTCTTAAAGCAGCCACCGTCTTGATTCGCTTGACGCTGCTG: 86.3 a.u.
TATCTAATCATTTTGCACGTCAAGATTCTCCTTAACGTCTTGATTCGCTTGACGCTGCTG: 77.6 a.u.
CTTTCCCGATCTTGTCACTGAACTTTAGCACATTTGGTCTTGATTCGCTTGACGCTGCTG: 79.4 a.u.
TGCGCAACAACTTGTCACTATACTTTATGTCTAGAAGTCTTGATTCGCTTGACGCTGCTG: 67.8 a.u.
CGTTATGTCCCTAACGACGTGCAATAACTTGCGGAAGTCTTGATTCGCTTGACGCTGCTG: 86.7 a.u.
TTTTTTCAGATGGAGACTGTGATGGGGTAGCGCTTGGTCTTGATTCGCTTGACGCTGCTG: 64.9 a.u.
TGAAGAAGGGGTAGACTCGGAAGCGTTCCAGCGTCTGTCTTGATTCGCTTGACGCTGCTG: 61 a.u.
ATGTTCATGGAAAAGCACGTGCCACTCCACTTCCAAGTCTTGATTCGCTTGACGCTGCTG: 2120 a.u.
TGCGCAACAACTTGGTTTGTGGGTGTATGTCTAGAAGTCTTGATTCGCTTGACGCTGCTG: 64.4 a.u.
TTAGTCTGTAACCAACACGTGCAAAGGGTAAATAGAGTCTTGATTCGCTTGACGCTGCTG: 1900 a.u.
CTTCTGTAAATTTGGACTGTGGGTGGACGCGCCCCGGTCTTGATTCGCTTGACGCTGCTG: 84.2 a.u.
GTAGAGCAGGATGATCCCGTGCCAGAACTGGATATCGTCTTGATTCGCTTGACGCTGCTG: 360 a.u.
CCTGCAAAGCAATGCAACGTGGGCCTGTGAGGATGAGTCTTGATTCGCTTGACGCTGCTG: 78.3 a.u.
TCTCGATCTTCCCATCACGCATAGGGTTTTGGGCTTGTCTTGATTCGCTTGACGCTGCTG: 85.9 a.u.
GCCAGCCACATTCACCACGGGTGCCGGTACTTCCAAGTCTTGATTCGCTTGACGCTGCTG: 57.8 a.u.

Study 3 — method: protein binding microarray; form: double-stranded DNA, one strand shown; medium: in vitro; tested at: not given; baseline: not given; reading: higher = stronger binding; endpoint: E-score
Target: Histone acetyltransferase KAT6A, both winged helices, GST fusion (KAT6A, Homo sapiens, UniProt Q92794, residues 1-181)
Notes: 8-mer, flanks averaged, mean of 2 arrays, mostly near background
Target sequence (chain): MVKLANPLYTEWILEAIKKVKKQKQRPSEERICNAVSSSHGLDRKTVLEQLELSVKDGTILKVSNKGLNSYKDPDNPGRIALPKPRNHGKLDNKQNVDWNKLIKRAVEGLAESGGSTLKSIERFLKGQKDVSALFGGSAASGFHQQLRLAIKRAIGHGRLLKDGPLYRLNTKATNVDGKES
GAGGGGGA: -0.278
AACAACCG: 0.0825
GCTTTGCC: -0.118
GGACCGAA: -0.0883
ATAGCAGA: -0.179
ACTTAGAT: -0.0281
ACAATATC: 0.0318
CACGAGCC: -0.0864
AGTGGGAG: -0.261
AAGGTCCT: -0.202
GGTGTCAA: 0.04
CTAGGTAC: -0.166
ACGCGGAG: 0.206
ATTTGACC: -0.0829
TAAAATTA: -0.0493
CACAGTCC: 0.0511
CACGTCGC: 0.176
CCTAGAGC: 0.035
CAAAGAAA: -0.146
CGAGAACA: 0.0244
CGCTGCCG: 0.312
GGATTGGA: -0.173
ACGTCGGC: 0.178
AACATGAC: 0.0268

Study 4 — target: CCND3, cyclin fold, Cln2 fusion (human); method: yeast growth competition, sequencing; medium: yeast; notes: weak parent motif; baseline: not given; reading: higher = stronger binding; endpoint: normalised enrichment score
Starting sequence: BORA docking peptide (human); SSLRRKLFLDGNG
SSLRRKLLLDGNG [F8L]: 0.395
SALRRKLFLDGNG [S2A]: 0.158
SSLRKKLLLDGNG [R5K F8L]: 0.175
SSLRRKLFLDGNA [G13A]: 0.121
SSLRRKLFLAGNG [D10A]: 0.0936
SSARRKLFLDGNG [L3A]: 0.0269
SSLRAKAFLDGNG [R5A L7A]: -0.0202
SSLRRKLFLDANG [G11A]: 0.174
SSLRRKLFLDGAG [N12A]: 0.165
SSLRRKLFADGNG [L9A]: -0.0255
SSLRKKLFFDGNG [R5K L9F]: 0.662

Study 5 — method: universal PBM; form: double-stranded DNA, one strand shown; medium: in vitro; tested at: not given; reading: higher = stronger binding; endpoint: E-score
Target: Sal-like protein 4, full length isoform B (SALL4, Homo sapiens, UniProt Q9UJQ4-2, residues 1-616)
Notes: 8-mer, flanks averaged, mean of replicates
Target sequence (chain): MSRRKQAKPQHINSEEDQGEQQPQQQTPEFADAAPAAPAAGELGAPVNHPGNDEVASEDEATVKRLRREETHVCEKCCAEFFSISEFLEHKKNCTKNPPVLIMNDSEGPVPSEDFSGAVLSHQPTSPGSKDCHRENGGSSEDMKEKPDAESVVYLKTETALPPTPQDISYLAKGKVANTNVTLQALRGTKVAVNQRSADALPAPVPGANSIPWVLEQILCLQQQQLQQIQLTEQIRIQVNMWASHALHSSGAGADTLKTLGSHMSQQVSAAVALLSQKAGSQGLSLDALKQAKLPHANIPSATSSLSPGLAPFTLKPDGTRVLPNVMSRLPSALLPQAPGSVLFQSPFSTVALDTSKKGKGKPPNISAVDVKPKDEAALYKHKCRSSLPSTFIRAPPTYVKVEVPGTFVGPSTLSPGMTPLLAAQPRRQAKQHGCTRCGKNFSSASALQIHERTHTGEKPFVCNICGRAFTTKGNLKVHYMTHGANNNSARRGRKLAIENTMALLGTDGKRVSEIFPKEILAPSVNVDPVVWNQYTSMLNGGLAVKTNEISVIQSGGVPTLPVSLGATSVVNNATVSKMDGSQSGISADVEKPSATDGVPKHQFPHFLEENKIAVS
ATTTGTAG: 0.267
ATAGCTGC: 0.129
AACGTACA: 0.194
TACGTCCA: 0.0151
ATAACTAA: 0.347
ACCCGGGA: -0.292
ATGGGGAA: -0.017
AGGTCCAA: -0.0456
TAAAGCTA: 0.0781
ACATGTCT: 0.188
GGGTATTA: 0.15
TATTAAGA: 0.311
CTTCGCGA: -0.178
AGCTACCT: -0.0394
AGCTAATG: -0.0461
ACCAGTGC: -0.249
AACCGAGA: 0.0541
ATCCTCGC: -0.233
AGGAAATC: -0.0274
AAGGTCTC: 0.0153
CGCACCCA: -0.302
ATCATGGA: 0.0232
CGATCCCG: -0.339
GATTGCGC: 0.00989

Study 6 — method: DHFR PCA, deep sequencing; medium: yeast; with: (+)-ABA 0 µM; baseline: wild-type fitted maximum; reading: higher = stronger binding; endpoint: relative binding score
Target: ABI1, truncated, D143A, DHFR fusion (Arabidopsis thaliana)
Notes: methotrexate growth selection, single substitutions
Starting sequence: PYL1, truncated, DHFR fusion (Arabidopsis thaliana); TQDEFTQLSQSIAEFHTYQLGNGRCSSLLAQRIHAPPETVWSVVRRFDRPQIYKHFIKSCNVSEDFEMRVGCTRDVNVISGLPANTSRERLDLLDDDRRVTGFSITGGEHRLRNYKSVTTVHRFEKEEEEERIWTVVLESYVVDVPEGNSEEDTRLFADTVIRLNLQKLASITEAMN
Q19W: 1.52%
F66T: -5.18%
D97K: 30.8%
D65E: 13%
T120Q: -9.41%
E109W: -7.2%
G21E: 34.8%
F103R: -0.978%
E38D: 22.4%
I33V: 4.99%
L156N: -7.76%
S59N: 11.2%
Q31I: 3.4%
T135L: -9.56%
S117C: 2.07%
F15I: -2.36%
E130G: 26.6%
G81S: 37.5%

Mixed results
PhoQ, residues 284 288 289 292 302 303 TNSAEL  fold induction (PhoP, residues 12 14 15 18 19 GQALL (Escherichia coli, UniProt P23836); Sort-seq, measured: YFP reporter; E. coli; PhoQ-PhoP variant library, with: 10 µM Mg2+; baseline: high Mg2+ state, higher = stronger signaling): 2.34

A few entries again (study 5):
TACGTCCA: 0.0151
ATAACTAA: 0.347
ACCCGGGA: -0.292
ATGGGGAA: -0.017
AGGTCCAA: -0.0456
TAAAGCTA: 0.0781
ACATGTCT: 0.188
GGGTATTA: 0.15
TATTAAGA: 0.311
CTTCGCGA: -0.178
AGCTACCT: -0.0394
AGCTAATG: -0.0461
ACCAGTGC: -0.249
AACCGAGA: 0.0541
ATCCTCGC: -0.233
AGGAAATC: -0.0274
AAGGTCTC: 0.0153
CGCACCCA: -0.302
